Published values from different studies.
Each line is one published result; not all experiments were run side by side. Several values in a cell are separate wells, animals, samples, runs or records. ± gives the spread as reported.

Substance | target or system | test | system | setting | measurement | value
C[C@H]1CNCCc2ccc(Cl)cc21 | – | – | male Sprague-Dawley rat, plasma | subcutaneous, pimavanserin 0.5 + lorcaserin 0.5 mg/kg, pimavanserin 15 min earlier | AUC(0-t) | 26.5 ± 1.8 ng·h/mL
N.N.O=C([O-])C1(C(=O)[O-])CCC1.[Pt+2] | SW480 | cell viability, MTT | – | 96 h | IC50 | 37 ± 1 µM
CN[C@@](C)(C[18F])C(=O)O | MDA-MB-468 tumour model | – | host not given, heart | 15 min, tumour-bearing | tracer uptake | 3.1 %ID/g
CC(C)c1ccc2c(c1)CC[C@H]1[C@](C)(CN)CCC[C@]21C | WM278.1 melanoma (vertical growth phase) | cell viability, MTS | – | 72 h | IC50 | 2.27 ± 0.07 µM
salinomycin 20-ethyl carbonate sodium | JIMT-1 | MTT | – | 72 h, 2D culture, normoxia | IC50 | 0.12 ± 0.0132 µM
C=C(CC[C@@H](C)[C@H]1CC[C@H]2C3=C(C[C@H](O)[C@]12C)[C@@]1(C)CC[C@@H](O)[C@@H](C)[C@@H]1CC3=O)C(C)C(=O)OC (stereo partly shown) | BV-2 | NO release, inhibitor, Griess | – | 24 h, LPS-stimulated | IC50 | < 5 µM
CC(/C=C/C(C)=C/[C@@H]1Cc2nc(cs2)CCCCC(=O)O[C@@H](C)C/C(C)=C/C=C\C(=O)O1)=C\CN(C)C | primary CLL cells | apoptosis, annexin V/PI staining | – | 24 h, 10% human plasma | IC50 | 4.54 ± 1.92 µM
N.N.[Cl][Pt][Cl] | MRC5 | cell growth or viability, MTT | – | 72 h | IC50 | 17.2 µM
CC(=C[n+]1ccc(-c2ccccc2)cc1)c1ccccc1 | MN9D | cell viability, MTT | – | 18 h | IC50 | ~23 µM and 23 µM
CCCCCCCCCC(=O)N[C@@H](Cc1ccccc1)C(=O)N[C@H](C(=O)NCC(=O)N[C@H](C(=O)N[C@@H](CC(C)C)C(=O)N[C@H](C(=O)N1CCC[C@H]1C(=O)N[C@@H](CC(C)C)C(=O)N[C@@H](C)C(=O)N[C@@H](CC(C)C)C(=O)NCC(=O)N[C@@H](C)C(=O)N[C@@H](CC(C)C)C(=O)N[C@H](C(=O)N[C@@H](CCCCN)C(=O)N[C@@H](CC(C)C)C(=O)N[C@@H](Cc1ccccc1)C(=O)N[C@@H](CCCCN)C(N)=O)[C@@H](C)O)[C@@H](C)CC)[C@@H](C)O)[C@@H](C)CC | CCRF-CEM | cell growth or viability, CCK-8 | – | 24 h | IC50 | 6.24 µM
O=C(Cn1cnc2ccccc2c1=O)Nc1cc(Cl)ccc1O | HepG2.2.15 | cell growth or viability, crystal violet | – | 48 h | IC50 | > 100 µM
C[C@@H]1CC[C@H]2[C@@H](C)C(=O)O[C@@H]3O[C@@]4(C)CC[C@@H]1[C@]32OO4 | MCF7/ADR multidrug-resistant | cell growth, MTT | – | 24 h | IC50 | > 100 µM
Cc1cc(C)n(C(=S)[S][Au-][P+](c2ccccc2)(c2ccccc2)c2ccccc2)n1 | PHA-P stimulated human PBMC | cell growth, MTT | – | 3 d | IC50 | 8.63 ± 3.77 µM
